# Measurements gathered from unrelated publications.
# A part holds a random share of what one study measured. Substitutions count along the parent as printed.

# Block 1 — technique: protein-binding microarray; form: double-stranded DNA, one strand shown; medium: in vitro; concentration: 250 nM; notes: 60-bp whole probe; added: salmon DNA 0.4 mg/ml; relative to: random background probes; reading: higher = stronger binding; all sequences stand within: GCCTAGCAC … GTCTTGATTCGCTTGACGCTGCTG
# Target: Interferon regulatory factor 7, full length, phosphomimetic (IRF7, Homo sapiens, UniProt Q92985, residues 1-503, S101K/S471D/S472D/S475D/S476D/S477D/S483D/S484D/S487D)
# Chain of UniProt Q92985 (whole entry, unmodified, looked up): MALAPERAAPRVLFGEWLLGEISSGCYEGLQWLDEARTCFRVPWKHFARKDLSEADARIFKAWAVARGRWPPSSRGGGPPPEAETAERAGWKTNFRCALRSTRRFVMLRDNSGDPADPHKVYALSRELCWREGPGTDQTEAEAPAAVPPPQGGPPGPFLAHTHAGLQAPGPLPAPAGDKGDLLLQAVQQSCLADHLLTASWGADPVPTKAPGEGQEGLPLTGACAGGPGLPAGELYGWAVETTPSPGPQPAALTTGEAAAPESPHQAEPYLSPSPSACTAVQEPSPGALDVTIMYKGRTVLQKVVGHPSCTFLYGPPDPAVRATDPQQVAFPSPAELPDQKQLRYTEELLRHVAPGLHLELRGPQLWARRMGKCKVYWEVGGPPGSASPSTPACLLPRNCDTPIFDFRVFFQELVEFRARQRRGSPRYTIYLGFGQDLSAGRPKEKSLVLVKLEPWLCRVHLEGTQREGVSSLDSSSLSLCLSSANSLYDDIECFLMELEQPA
Strand,log fluorescence [z-score]
TTAGATATCGGACTGGATTAGTGCTAG,0.18
GACGGTCCCGGTTTCGGGACGTGCTAG,4.85
CATCTTCTGGATTTTTTAGCGTGCTAG,0.25
GACGAACTGAGTTTCGAAACGTGCTAG,5.32
TGAGATATCGGGACTGGATTAGTGCTA,-0.214
TTAGGTTTCGATCTCGGTTAGTGCTAG,9.46
AGATATTCAGGTATATAAAGGTGCTAG,0.14
GGCCTCTCTGTTTTCCTGTTGTGCTAG,0.984
TTAGATATCAGTATCGAGTAGTGCTAG,0.289
TTAGGTGTCCTACTGCTTTAGTGCTAG,-0.404
TTAGATTCTAGTTTCGATTAGTGCTAG,11.2
GACGGTTTCGGTTCCGGGATGTGCTAG,12.5
TTAGGTTTCCTCATCCTTTAGTGCTAG,1.42
TTAGGCCTCGGTATCGGTTAGTGCTAG,1.92
GACGGACCGGGGTATCGGGACGTGCTA,-0.538
TTAGATGTCGGGACTGGATTAGTGCTA,-0.0958
TTCACTCTCTGCTTGTATCTGTGCTAG,0.423
TACGGTATCCTTATCCTGACGTGCTAG,0.514
CTTGTGCTCCTTTTAATTTTGTGCTAG,0.144

# Block 2 — technique: RNA Bind-n-Seq; form: RNA; medium: in vitro; concentration: 365 nM; relative to: no-protein control; reading: higher = stronger binding
# Target: RNA binding protein fox-1 homolog 2, RRM domain, GST-SBP tag (RBFOX2, Homo sapiens, UniProt O43251-10, residues 100-194)
# Notes: natural RNA segment, single round, ends assumed
# All sequences stand within: GGGAGUUCUACAGUCCGACGAUC … UGGAAUUCUCGGGUGCCAA
# Target sequence (chain): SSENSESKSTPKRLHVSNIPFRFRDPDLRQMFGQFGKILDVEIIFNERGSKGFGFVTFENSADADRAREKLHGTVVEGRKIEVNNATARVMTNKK
Strand,RBNS enrichment (R)
UUCUCAAGCCUAUUACUCUAGAGCUGUAAAAGCUCUUGCACAGCAUUGUUGUGUCAGUGUAGAAUAGUGGCAUAAAUAAAUGAAUUAAGCUACAUUUCCAUGCAGGCAUU,0.282
CAUUGCCUGUGGCCUCUGUCACCCUGGAGCAAAGCCAGACCUUGGAACCCAAACUACUUUAGUCCCUAGAAAAGUUUCUGCUCAGAACUGAGGAUGGAAAGAGCCGUAAU,0.361
AAUAGAUUCUUACCCAAUGCCACUGUCAGUAUCCCAGGUAGUGAAAUUCUUAAAGUGGUGGGGUAUUAGUACUAGUAGUUUUAUGUUGUCUAAUUCUAGCCAAGCUUCUG,0.329
UCCUGAGUCUUCAGGUGCACACAGCCUUCUUGUGGAGCUACUUUUGCAAAUAUUACAAGGUGGGGGGACACUAAUUGUUGCUGCUAGUGCUGUCUAAUAACGUGGUCAUU,0.731
CAGGCUUGUGUCCCCACUGCUGCAUCGUGGCGGGGUGUCACAGACCCUCUGCAGCCCCUGGCUGCCCUGGACUGUGCAGAGAUGCCUGACUCCAGGGAAACCUGAAAGCA,0.948
CACUUAAUAGUGACUUUACAAAAUAAAAGUUAUAUUCUCAGUUGUUUAAAAUCACUAACCUAUGAUAACCACACCUCAAUUUGAAAGUAGAUUUAAAAUUAUUCCCUGAC,0.417
UUGAAAAGUUUGAGUGUUACAGGCUCUAAAGUGCAAUGGAGAACAAUUGCUUAGGAGGAGGAAGGGGAAAGUAUACUUAUGUUGGUGUGUAAGCAUGCAUGGAGGCCUCG,4.1
UGCAGUCAGUAAGCAUGUUUGAAAGGACCAUAAAAACCAGAGAAAUGCUGAUGGGAACUUGGAAGUUCAGAAACCAAGGGGAAAUGUCCUGAGAUAACAUUUGCAUUGUC,7.55

# Block 3 — technique: protein binding microarray; form: double-stranded DNA, one strand shown; medium: in vitro; concentration: not given; relative to: not given; reading: higher = stronger binding
# Target: Histone acetyltransferase KAT6A, winged helix 1, GST fusion (KAT6A, Homo sapiens, UniProt Q92794, residues 1-85)
# Notes: 8-mer, flanks averaged, mean of 2 arrays, mostly near background
# Target sequence (chain): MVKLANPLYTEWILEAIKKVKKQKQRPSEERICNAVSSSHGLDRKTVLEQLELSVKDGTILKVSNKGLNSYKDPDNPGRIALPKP
Strand,E-score
CAAAGGGG,-0.227
CTCCGCTA,0.273
TGCGTTAA,0.136
CTCATACA,-0.123
GTTTCCCA,-0.172
TGCCAAAA,-0.134
CCTTAGAG,-0.116
GGTCGAGA,0.0496
CCGTATTA,0.302
AACAAGCA,-0.17
ACACTGGG,-0.144
CCTCCTTC,-0.0755
CAGGCCGC,0.285
TCTATCAA,-0.208
TGGATCCA,-0.156
CTCCGACA,-0.0573

# Block 4 — target: CCNA1, cyclin fold, Cln2 fusion (human); technique: yeast growth competition, sequencing; medium: yeast; notes: weak parent motif; relative to: not given; reading: higher = stronger binding
# Starting sequence: SLBP docking peptide (human); ARYKRKLLINDFG; partner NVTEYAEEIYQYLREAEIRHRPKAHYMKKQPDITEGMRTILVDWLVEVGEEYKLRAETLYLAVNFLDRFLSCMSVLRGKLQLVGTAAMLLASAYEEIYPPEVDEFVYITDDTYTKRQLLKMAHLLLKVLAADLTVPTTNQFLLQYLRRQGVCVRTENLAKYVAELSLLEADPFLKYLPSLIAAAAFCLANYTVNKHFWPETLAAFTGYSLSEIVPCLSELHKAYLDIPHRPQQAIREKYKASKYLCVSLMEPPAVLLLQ
Change,normalised enrichment score
F12M,0.147
K6G,0.501
A1F,0.304
K4T,-0.00512
R5K,0.36
K4W,0.679
L7D,0.137
I9Y,0.552
L8I,0.548
I9C,0.443
R5Y,-0.0134
I9W,0.405
K4S,0.279
I9M,0.558
R5A L7A,0.0937
F12S,0.412

# A few entries again (block 1):
Strand,log fluorescence [z-score]
TTAGATATCGGACTGGATTAGTGCTAG,0.18
GACGGTCCCGGTTTCGGGACGTGCTAG,4.85
CATCTTCTGGATTTTTTAGCGTGCTAG,0.25
GACGAACTGAGTTTCGAAACGTGCTAG,5.32
TGAGATATCGGGACTGGATTAGTGCTA,-0.214
TTAGGTTTCGATCTCGGTTAGTGCTAG,9.46
AGATATTCAGGTATATAAAGGTGCTAG,0.14
GGCCTCTCTGTTTTCCTGTTGTGCTAG,0.984
TTAGATATCAGTATCGAGTAGTGCTAG,0.289
TTAGGTGTCCTACTGCTTTAGTGCTAG,-0.404
